Results of several laboratories.
Protocols differ between the studies behind these lines. Numbers after ± are the reported error.
OPRK1: Kappa-type opioid receptor (OPRK1, Homo sapiens, UniProt P41145)
Chain of UniProt P41145 (whole entry, unmodified, looked up): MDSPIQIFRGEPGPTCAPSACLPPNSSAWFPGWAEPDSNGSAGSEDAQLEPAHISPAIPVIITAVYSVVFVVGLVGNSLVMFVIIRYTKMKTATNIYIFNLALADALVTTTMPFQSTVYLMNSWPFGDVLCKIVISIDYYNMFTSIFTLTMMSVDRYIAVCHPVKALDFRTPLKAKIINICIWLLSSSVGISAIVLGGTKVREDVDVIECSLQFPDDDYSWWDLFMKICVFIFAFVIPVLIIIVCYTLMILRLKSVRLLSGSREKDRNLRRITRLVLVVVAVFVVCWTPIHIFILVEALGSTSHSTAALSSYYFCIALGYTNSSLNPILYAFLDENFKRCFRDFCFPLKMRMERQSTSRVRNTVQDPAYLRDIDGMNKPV

SMILES	target	test	test system	conditions	endpoint	value
Oc1cccc(N2C3CCC2CN(CCc2ccccc2)C3)c1	OPRK1	–	–	–	EC50	> 10000 nM
C/C=C1/C[N+]2(C)CC[C@]34C(=C(C(=O)OC)[C@H]1C[C@@H]32)Nc1ccccc14 (some centres unmarked)	OPRK1	cAMP inhibition, agonist, HitHunter	CHO-K1	added: forskolin	EC50	> 10000 nM
NC(N)=Nc1ccc2[nH]c3c(c2c1)C[C@@]1(O)[C@H]2Cc4ccc(O)c5c4[C@@]1(CCN2CC1CC1)[C@H]3O5	OPRK1	–	–	–	Ki	0.11 nM
C=CC[N+]12CC[C@]34C(=C(C(=O)OC)[C@@H](C[C@@H]31)/C(=C\C)C2)Nc1ccccc14 (some centres unmarked)	OPRK1	cAMP inhibition, agonist, HitHunter	CHO-K1	added: forskolin	EC50	> 10000 nM
C[C@H]1N=C(c2ccccc2F)c2cc(Br)ccc2-n2cnc(C(=O)O)c21	OPRK1	binding	–	–	IC50	> 10000 nM
COc1cc(Nc2ncc(F)c(Nc3ccc4c(n3)NC(=O)C(C)(C)O4)n2)cc(OC)c1OC	OPRK1	–	–	–	IC50	> 10000 nM
CC[C@@H]1CN2CC[C@]34c5ccccc5N[C@@H]3[C@H](C(=O)OC)[C@H]1C[C@H]24	OPRK1	cAMP inhibition, agonist, HitHunter	CHO-K1	added: forskolin	EC50	> 10000 nM
CCCC[C@@H](NC(=O)[C@@H](N)Cc1ccc(O)cc1)C(=O)NCC(=O)N[C@@H](Cc1ccc(F)cc1)C(=O)N(C)CCC[C@@]1(c2ccc(F)cc2)OCc2cc(C#N)ccc21	OPRK1	–	–	–	IC50	245 nM
COc1cc(C(=O)N2CC[C@@H](O)[C@@H](N)C2)cc2nc(-c3cc4ccccc4n3CC3CC3)n(C)c12	OPRK1	G protein activation, agonist, GTPγS binding	–	–	EC50	> 100000 nM
CCCC[C@@H](NC(=O)[C@@H](N)Cc1c(C)cc(O)cc1C)C(=O)NCC(=O)N[C@@H](Cc1ccc(F)cc1)C(=O)N(C)CCC[C@@]1(c2ccc(F)cc2)OCc2cc(C#N)ccc21	OPRK1	–	–	–	IC50	12 nM
Cc1cccc(C)c1N1C(=O)CNC2(CCN(C)CC2)C1=O	OPRK1	binding	–	–	Ki	> 10000 nM
C[C@@H](NC(=O)[C@@H](N)Cc1ccc(O)cc1)C(=O)NCC(=O)N[C@@H](Cc1ccccc1)C(=O)N(C)CCC[C@@]1(c2ccc(F)cc2)OCc2cc(C#N)ccc21	OPRK1	–	–	–	IC50	302 nM
COC(=O)/C=C/C(=O)N[C@@H]1CC[C@@]2(O)[C@H]3Cc4ccc(O)c5c4[C@@]2(CCN3CC2CC2)[C@H]1O5	OPRK1 (Homo sapiens, UniProt P41145, E297K)	reversible binding, radioligand saturation binding	N2a membranes	added: [3H]compound	Kd	10.3 ± 3.39 nM
Cc1cccc(C)c1N1C(=O)[C@H](CO)NC2(CCN(C)CC2)C1=O	OPRK1	binding	–	–	Ki	> 10000 nM

Repeated from above:
SMILES	target	test	test system	conditions	endpoint	value
C=CC[N+]12CC[C@]34C(=C(C(=O)OC)[C@@H](C[C@@H]31)/C(=C\C)C2)Nc1ccccc14 (some centres unmarked)	OPRK1	cAMP inhibition, agonist, HitHunter	CHO-K1	added: forskolin	EC50	> 10000 nM
CCCC[C@@H](NC(=O)[C@@H](N)Cc1c(C)cc(O)cc1C)C(=O)NCC(=O)N[C@@H](Cc1ccc(F)cc1)C(=O)N(C)CCC[C@@]1(c2ccc(F)cc2)OCc2cc(C#N)ccc21	OPRK1	–	–	–	IC50	12 nM
